Experimental data pooled from the literature.
Each numbered part is a random draw from the data of one study; scales do not carry over between parts.

Block 1
Target: Histone acetyltransferase KAT6A, both winged helices, GST fusion (KAT6A, Homo sapiens, UniProt Q92794, residues 1-181)
Technique: protein binding microarray
Molecule type: double-stranded DNA, one strand shown
Matrix: in vitro
Tested at: not given
Notes: 8-mer, flanks averaged, mean of 2 arrays, mostly near background
Relative to: not given
Reading: higher = stronger binding
Target sequence (chain): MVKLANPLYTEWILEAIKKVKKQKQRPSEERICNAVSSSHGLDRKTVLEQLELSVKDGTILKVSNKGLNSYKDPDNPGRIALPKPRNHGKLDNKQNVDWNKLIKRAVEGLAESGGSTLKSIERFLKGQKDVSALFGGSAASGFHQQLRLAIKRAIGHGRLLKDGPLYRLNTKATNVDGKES
Strand	E-score
CAGCCCAA	-0.196
ATTTTGAG	-0.104
AGGTGGAG	-0.257
CGGCTTCC	0.215

Block 2
Target: RNA binding protein fox-1 homolog 2, RRM domain, GST-SBP tag (RBFOX2, Homo sapiens, UniProt O43251-10, residues 100-194)
Technique: RNA Bind-n-Seq
Molecule type: RNA
Matrix: in vitro
Tested at: 365 nM
Notes: natural RNA segment, single round, ends assumed
Relative to: no-protein control
Reading: higher = stronger binding
Strand	RBNS enrichment (R)
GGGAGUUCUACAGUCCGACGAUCCUACUCUUGUUUUCCCUCAUGAUAAUAAAUUUGUCAUAACUCAGUAACAUGAACUUGCCCCUAGAGGUAGUUGUUAAUAAUUUUGAAAUAUUAAGGUCUUGCCAAGCUUCUGGAAUUCUCGGGUGCCAA	0.585
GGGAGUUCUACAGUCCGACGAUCUGCAGGGACAGAUGAUGUGCUGUCCUGUAUGAACCAUGCAUUCCAAUGGUACAACUGCCCAAAUCCACCUUUGGUUUCUGAUGACUUACAAGUGACUAUAGAAGAAAGAGUGGAAUUCUCGGGUGCCAA	0.821
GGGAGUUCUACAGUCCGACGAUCAGAAGGCUUGGCUUUCUUGACUUUCUUGCAUAAGAGUGAAAUACUCCUUACCCAGGGUAUCAUAGUUCUAAGAAUGAAAGCACCUUAAAUGCCUUGCACAGAACCAAUUUUGGAAUUCUCGGGUGCCAA	0.422
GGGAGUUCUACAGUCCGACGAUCCAGCAUUUAAAGAGAGGAAGGAGAACCAUCCUGGACACUCCGGGCUGUGCAUGUUUAAAGAAAUGUCCCUUAUGAGAAUGAAAGCUGAUUCCGUGUCCCAACUUUAGAGAUGGAAUUCUCGGGUGCCAA	54.1
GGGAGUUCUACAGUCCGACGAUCAGGGGAUGUGGAGUGAGAACAGCAUUUAGUGAAGUUGUGCAACGGCCAGGGUUGUGCUUUCUAGCAAAUAUGCUGUUAUGUCCAGAAAUUGUGUGUGCAAGAAAACUAGGUGGAAUUCUCGGGUGCCAA	1.45
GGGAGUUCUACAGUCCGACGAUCUUAAAAACUUGGAUUAACCACUCAAUGUCCACUUUCUUUGACUUACAGUAUAACCAUGUAGCCAAUUGUGGCCCACUAAAAUCUACAGAAGUUAAUGUGGGUCACCAUUUUGGAAUUCUCGGGUGCCAA	0.496

Block 3
Target: Sal-like protein 4, full length isoform A (SALL4, Homo sapiens, UniProt Q9UJQ4, residues 1-1053)
UniProt Q9UJQ4, sequence (whole entry, looked up): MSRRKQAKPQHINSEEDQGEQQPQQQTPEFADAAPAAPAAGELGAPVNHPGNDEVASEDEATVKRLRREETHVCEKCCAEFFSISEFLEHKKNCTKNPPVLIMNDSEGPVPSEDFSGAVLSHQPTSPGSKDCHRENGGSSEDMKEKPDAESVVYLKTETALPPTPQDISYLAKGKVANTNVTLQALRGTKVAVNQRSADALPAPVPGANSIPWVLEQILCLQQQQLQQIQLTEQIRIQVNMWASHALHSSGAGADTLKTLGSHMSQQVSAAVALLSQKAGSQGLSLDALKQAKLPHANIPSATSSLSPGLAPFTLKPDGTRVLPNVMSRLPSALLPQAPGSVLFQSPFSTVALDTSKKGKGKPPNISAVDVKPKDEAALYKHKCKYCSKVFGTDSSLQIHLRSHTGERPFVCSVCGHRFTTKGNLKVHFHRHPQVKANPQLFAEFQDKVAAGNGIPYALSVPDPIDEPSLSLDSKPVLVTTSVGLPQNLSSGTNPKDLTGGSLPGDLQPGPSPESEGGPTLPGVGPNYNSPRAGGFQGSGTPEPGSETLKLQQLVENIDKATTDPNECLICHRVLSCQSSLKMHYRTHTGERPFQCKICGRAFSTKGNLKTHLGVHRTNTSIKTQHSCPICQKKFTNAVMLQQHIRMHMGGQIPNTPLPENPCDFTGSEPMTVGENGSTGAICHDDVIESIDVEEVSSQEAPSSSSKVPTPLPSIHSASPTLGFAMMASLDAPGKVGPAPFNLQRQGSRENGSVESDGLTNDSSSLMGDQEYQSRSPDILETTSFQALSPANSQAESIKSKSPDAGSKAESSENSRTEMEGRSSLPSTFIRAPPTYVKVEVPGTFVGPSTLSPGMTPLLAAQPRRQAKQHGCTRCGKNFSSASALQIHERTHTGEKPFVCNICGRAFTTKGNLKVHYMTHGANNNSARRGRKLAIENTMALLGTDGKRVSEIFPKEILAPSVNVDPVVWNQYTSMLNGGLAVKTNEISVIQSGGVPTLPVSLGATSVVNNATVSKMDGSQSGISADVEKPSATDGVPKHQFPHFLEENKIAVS
Technique: universal PBM
Molecule type: double-stranded DNA, one strand shown
Matrix: in vitro
Tested at: 600 nM
Notes: 8-mer, flanks averaged, mean of replicates
Reading: higher = stronger binding
Strand	E-score
ACCAACTA	0.129
AGCTAACT	0.184
ATAGTGTA	0.333
CCGTAGCG	-0.284
CGACTTCA	-0.0537
TAGTTACA	0.11

Mixed results
Substance	target	test	test system	conditions	how to read	measurement	result
PhoQ, residues 284 288 289 292 302 303 TNSAEL	PhoP, residues 12 14 15 18 19 DLLYY (Escherichia coli, UniProt P23836)	Sort-seq, measured: YFP reporter	E. coli	PhoQ-PhoP variant library, with: 10 µM Mg2+	relative to: high Mg2+ state, higher = stronger signaling	fold induction	2.58

For quick reference, copied from above (block 3):
Strand	E-score
CCGTAGCG	-0.284
